Assay results collected from several papers.
Each line is one published result; not all experiments were run side by side.
Sequence of UniProt P30550 (whole entry, looked up): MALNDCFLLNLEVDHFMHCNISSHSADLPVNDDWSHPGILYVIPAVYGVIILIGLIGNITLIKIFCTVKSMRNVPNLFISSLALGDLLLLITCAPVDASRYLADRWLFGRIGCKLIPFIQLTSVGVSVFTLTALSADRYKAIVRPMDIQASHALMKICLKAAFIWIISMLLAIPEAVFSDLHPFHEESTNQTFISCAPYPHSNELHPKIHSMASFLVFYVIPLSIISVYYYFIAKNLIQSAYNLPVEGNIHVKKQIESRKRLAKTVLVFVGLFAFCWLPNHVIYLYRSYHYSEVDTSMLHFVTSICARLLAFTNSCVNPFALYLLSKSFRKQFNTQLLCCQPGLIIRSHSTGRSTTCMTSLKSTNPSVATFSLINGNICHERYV
Sequence of UniProt Q13936 (whole entry, looked up): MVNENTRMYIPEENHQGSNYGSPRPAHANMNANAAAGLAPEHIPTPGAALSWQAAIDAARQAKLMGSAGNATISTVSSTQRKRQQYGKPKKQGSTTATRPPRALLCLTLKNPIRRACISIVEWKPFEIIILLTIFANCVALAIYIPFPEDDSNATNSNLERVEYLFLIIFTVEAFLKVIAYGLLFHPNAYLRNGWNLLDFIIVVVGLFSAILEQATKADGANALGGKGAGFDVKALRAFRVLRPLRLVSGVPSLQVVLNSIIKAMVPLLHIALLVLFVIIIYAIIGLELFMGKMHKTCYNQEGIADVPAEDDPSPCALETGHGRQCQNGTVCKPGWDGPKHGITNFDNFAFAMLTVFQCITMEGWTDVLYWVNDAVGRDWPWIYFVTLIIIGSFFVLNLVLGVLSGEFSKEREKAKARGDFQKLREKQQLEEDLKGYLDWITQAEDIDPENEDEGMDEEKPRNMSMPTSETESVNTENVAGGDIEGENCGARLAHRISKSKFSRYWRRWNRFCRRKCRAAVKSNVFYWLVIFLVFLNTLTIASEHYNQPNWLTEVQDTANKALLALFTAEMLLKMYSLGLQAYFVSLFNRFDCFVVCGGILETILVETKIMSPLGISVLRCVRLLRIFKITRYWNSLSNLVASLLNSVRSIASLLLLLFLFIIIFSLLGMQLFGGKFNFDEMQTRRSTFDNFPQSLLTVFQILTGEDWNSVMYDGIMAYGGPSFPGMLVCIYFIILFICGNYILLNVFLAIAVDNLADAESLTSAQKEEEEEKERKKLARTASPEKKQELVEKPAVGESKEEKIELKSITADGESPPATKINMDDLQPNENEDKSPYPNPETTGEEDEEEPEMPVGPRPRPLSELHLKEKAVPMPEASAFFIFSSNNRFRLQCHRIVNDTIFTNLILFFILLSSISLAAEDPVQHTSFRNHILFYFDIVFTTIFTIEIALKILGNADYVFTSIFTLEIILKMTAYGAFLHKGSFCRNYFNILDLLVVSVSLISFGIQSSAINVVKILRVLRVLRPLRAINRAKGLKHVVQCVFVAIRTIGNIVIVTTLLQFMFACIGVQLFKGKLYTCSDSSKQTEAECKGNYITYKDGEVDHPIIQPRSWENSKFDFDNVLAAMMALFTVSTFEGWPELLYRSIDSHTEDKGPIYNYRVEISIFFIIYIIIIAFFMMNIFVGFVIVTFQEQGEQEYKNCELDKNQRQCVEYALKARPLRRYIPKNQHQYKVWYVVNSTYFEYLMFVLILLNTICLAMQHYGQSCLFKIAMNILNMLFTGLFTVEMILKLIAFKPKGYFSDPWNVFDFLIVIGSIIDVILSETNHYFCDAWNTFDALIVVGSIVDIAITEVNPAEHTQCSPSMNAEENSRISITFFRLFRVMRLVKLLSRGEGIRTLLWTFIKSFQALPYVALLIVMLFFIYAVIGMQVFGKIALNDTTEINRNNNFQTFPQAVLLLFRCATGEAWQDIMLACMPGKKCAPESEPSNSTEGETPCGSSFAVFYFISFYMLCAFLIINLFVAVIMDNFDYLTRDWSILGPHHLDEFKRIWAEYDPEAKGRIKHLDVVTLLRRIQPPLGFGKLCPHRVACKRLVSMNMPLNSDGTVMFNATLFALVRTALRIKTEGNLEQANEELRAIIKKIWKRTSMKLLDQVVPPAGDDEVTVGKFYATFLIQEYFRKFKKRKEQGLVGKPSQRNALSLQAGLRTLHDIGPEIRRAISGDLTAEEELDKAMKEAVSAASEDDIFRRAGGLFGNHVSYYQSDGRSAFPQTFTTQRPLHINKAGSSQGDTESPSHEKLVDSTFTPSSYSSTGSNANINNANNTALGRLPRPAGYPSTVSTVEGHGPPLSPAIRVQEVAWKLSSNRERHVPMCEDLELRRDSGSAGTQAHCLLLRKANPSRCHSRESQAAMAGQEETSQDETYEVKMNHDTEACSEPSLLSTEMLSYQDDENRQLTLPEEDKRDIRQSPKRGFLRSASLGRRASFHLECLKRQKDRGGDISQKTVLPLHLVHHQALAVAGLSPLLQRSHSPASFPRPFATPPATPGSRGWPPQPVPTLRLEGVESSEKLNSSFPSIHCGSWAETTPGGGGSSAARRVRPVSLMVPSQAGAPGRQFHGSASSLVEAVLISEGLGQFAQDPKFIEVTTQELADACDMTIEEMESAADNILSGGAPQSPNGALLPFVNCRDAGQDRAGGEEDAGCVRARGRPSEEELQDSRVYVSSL
Sequence of UniProt P27695 (whole entry, looked up): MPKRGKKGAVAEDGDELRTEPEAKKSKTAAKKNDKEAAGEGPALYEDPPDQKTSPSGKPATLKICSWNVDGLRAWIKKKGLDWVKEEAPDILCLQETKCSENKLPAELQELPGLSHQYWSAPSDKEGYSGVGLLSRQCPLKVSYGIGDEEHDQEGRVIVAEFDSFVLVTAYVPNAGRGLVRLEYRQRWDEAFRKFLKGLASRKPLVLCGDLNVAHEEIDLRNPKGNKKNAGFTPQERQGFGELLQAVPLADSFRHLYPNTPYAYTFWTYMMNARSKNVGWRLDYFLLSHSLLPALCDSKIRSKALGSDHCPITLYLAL
Sequence of UniProt P16050 (whole entry, looked up): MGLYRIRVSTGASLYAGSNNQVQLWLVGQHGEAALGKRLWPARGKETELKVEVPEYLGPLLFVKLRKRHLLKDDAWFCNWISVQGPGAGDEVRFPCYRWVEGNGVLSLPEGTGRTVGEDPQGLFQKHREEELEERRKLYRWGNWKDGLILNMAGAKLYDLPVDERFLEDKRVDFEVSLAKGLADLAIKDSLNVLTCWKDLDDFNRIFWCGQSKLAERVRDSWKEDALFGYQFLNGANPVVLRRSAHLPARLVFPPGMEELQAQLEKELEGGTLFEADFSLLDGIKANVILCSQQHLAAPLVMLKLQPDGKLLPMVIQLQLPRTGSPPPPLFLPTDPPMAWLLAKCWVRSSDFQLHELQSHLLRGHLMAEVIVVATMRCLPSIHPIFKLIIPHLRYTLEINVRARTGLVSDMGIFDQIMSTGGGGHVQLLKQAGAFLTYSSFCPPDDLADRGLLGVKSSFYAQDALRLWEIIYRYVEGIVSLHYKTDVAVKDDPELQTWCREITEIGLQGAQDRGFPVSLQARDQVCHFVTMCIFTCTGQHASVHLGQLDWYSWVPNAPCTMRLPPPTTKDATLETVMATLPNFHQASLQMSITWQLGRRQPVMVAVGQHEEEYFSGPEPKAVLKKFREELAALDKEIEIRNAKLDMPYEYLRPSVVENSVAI
Sequence of UniProt Q9BTU6 (whole entry, looked up): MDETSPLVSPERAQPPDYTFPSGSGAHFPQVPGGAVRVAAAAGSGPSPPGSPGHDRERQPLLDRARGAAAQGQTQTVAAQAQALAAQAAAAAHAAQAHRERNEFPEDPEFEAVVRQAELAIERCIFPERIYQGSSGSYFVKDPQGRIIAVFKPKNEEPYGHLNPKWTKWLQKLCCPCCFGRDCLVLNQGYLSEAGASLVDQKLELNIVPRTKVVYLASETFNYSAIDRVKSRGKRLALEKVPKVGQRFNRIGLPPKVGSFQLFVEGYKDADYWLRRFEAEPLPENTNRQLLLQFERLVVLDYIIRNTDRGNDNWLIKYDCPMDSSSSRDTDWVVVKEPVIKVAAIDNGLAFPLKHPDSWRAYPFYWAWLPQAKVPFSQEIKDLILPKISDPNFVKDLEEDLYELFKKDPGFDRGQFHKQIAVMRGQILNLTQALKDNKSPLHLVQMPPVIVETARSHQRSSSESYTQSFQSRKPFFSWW
Sequence of UniProt Q8NER1 (whole entry, looked up): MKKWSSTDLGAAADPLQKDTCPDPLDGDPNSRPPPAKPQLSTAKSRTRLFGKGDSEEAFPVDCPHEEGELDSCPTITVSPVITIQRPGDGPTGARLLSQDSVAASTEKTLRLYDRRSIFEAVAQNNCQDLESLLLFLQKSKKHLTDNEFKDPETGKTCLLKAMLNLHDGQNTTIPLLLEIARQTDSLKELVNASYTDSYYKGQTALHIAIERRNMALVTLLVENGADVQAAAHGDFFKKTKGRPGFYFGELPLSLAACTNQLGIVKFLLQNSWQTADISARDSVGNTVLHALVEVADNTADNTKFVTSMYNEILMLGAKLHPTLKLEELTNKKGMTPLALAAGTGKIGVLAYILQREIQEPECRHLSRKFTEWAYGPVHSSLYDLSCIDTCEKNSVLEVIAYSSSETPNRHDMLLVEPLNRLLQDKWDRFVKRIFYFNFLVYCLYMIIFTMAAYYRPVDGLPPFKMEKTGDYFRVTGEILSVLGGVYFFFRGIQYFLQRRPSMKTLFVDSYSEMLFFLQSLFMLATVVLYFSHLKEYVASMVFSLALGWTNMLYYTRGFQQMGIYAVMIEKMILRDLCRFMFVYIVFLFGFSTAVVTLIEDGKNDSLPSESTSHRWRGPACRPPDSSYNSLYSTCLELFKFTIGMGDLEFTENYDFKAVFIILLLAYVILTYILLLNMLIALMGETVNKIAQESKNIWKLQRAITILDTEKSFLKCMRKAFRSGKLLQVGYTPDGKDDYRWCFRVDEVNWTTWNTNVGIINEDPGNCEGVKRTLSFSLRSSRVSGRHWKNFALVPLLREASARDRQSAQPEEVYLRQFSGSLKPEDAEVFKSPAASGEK

The IC50 of `CC(C)C[C@H]1CN[C@H](C(N)=O)CSSC[C@@H](N)C(=O)N[C@@H](CCC(N)=O)C(=O)N[C@@H](Cc2c[nH]c3ccccc23)C(=O)N[C@@H](C)C(=O)N[C@@H](C(C)C)C(=O)N[C@H](C)C(=O)N[C@@H](Cc2c[nH]cn2)C(=O)N1` is reported as 2000 nM (GRPR (Homo sapiens, UniProt P30550); inositol phosphate generation, antagonist; Balb 3T3 expressing GRPR; with: GRP 1 nM).
With `COc1cc(CNC(=O)C[C@H](C)CCC=C(C)C)ccc1OCc1cn(-c2ccc([N+](=O)[O-])cc2)nn1` the growth percent was 70.2% (SF-295 CNS cancer cells; SRB; 10 µM, 48 h).
`COc1ccc2c(c1)c1c(n2CO)CN2CCc3cc(OC)c(OCc4ccccc4)cc3C2C1` (stereo not drawn) has an IC50 of 1610 nM (DRD1 (Homo sapiens, UniProt P21728); calcium signal, antagonist).
The IC50 of `CCC/C(=C\C1=C(OC)C(=O)c2ccccc2C1=O)C(=O)NOC` is reported as < 1000 nM (APEX1 (Homo sapiens, UniProt P27695); protein-nucleic acid interaction, inhibitor).
For `O=C(NN=Cc1c(O)ccc2ccccc12)c1cccc2cc[nH]c12`, the IC50 was 2500 nM (PI4K2A (Homo sapiens, UniProt Q9BTU6); enzyme activity, inhibitor).
`Cc1cc(C)nc(SCC(=O)Nc2ncc(Cc3cccc(OCc4cn(-c5ccc(Cl)cc5)nn4)c3)s2)n1` gave an IC50 of > 100000 nM (SIRT1 (Homo sapiens, UniProt Q96EB6); enzyme activity, inhibitor, fluorescence).
With `Cc1cc2c(NC(=O)N[C@@H]3CC(C)(C)Oc4cc(C(F)(F)F)ccc43)cccc2cn1` the IC50 was 17.8 nM (TRPV1 (Homo sapiens, UniProt Q8NER1); calcium signal, antagonist, fluorescence).
For `CN[C@H](CC(C)C)C(=O)N[C@H]1C(=O)N[C@@H](CC(N)=O)C(=O)N[C@H]2C(=O)N[C@H]3C(=O)N[C@H](C(=O)N[C@H](C(=O)O)c4cc(O)cc(O)c4-c4cc3ccc4O)[C@H](O)c3ccc(c(Cl)c3)Oc3cc2cc(c3O[C@@H]2O[C@H](CO)[C@@H](O)[C@H](O)[C@H]2O[C@H]2C[C@](C)(NCc3ccc(C(=O)OCCCCCCN(Cc4ccccn4)Cc4ccccn4)cc3)[C@H](O)[C@H](C)O2)Oc2ccc(cc2Cl)[C@H]1O`, the IC50 was 200 to 5000 nM (class B1 metallo-beta-lactamases; enzyme activity, inhibitor; mean over enzymes and).
For `COc1cc(CNC(=O)C[C@H](C)CCC=C(C)C)ccc1OCc1cn(-c2ccccc2Cl)nn1`, the growth percent was 28.5% (MDA-MB-468 breast cancer cells; SRB; 10 µM, 48 h).
For `CN1CCN(CC(=O)N2N=C3/C(=C/c4ccccc4)CCCC3C2c2ccccc2)CC1` (mixture of isomers), the AC50 was 9700 nM (ALOX15 (Homo sapiens, UniProt P16050); enzyme activity, activator; pH 7.4, 1% DMSO, stirring, with: arachidonic acid 50 µM).
`C[C@@H](OC(=O)c1cccc(S(=O)(=O)Nc2ccc3c(c2)OCO3)c1)C(=O)c1c[nH]c2ccccc12` gave an IC50 of 15500 nM (CACNA1C (Homo sapiens, UniProt Q13936); calcium signal, fluorescence).
`CC[C@H](C)[C@H](NC(=O)[C@@H]1CSSC[C@H](NC(=O)[C@H](Cc2ccc(O)cc2)NC(=O)CN)C(=O)N[C@@H](CO)C(=O)N[C@@H](CCCNC(=N)N)C(=O)N[C@@H](CO)C(=O)N[C@@H](Cc2ccc(O)cc2)C(=O)N2CCC[C@H]2C(=O)N2CCC[C@H]2C(=O)N[C@@H](C(C)C)C(=O)N1)C(=O)N1CCC[C@H]1C(=O)N[C@@H](CC(=O)O)C(=O)O` has an IC50 of 819 nM (Mannan-binding lectin serine protease 2 (Homo sapiens, UniProt O00187); C3 deposition, inhibitor, ELISA; 100-fold diluted human serum; 30 min preincubation).

Some of these lines once more:
With `COc1cc(CNC(=O)C[C@H](C)CCC=C(C)C)ccc1OCc1cn(-c2ccc([N+](=O)[O-])cc2)nn1` the growth percent was 70.2% (SF-295 CNS cancer cells; SRB; 10 µM, 48 h).
